Results of several laboratories.
Numbered parts are unrelated; each lists some results of a single study.

Set 1
Target: Prothrombin, mature alpha-thrombin (F2, Homo sapiens, UniProt P00734)
Method: aptamer microarray, sandwich
Form: DNA with 2'F-ANA
Matrix: in vitro
Concentration: 200 nM
Setting: whole 15-mer aptamer, many near background
Together with: Cy3 exosite-II aptamer, 400 nM
Reading: higher = stronger binding
Oligonucleotide: GGTTGGTGTGGTTGG
Modification | mean fluorescence intensity
2'F-ANA at 1 3 5 7 10 11 12 13 | 46.2 a.u.
2'F-ANA at 1 2 3 4 5 8 9 10 13 14 | 44.4 a.u.
2'F-ANA at 5 8 9 10 15 | 47.4 a.u.
2'F-ANA at 2 3 5 6 12 14 15 | 54.3 a.u.
2'F-ANA at 1 2 4 6 7 9 12 14 | 61.3 a.u.
2'F-ANA at 1 5 7 10 15 | 43.5 a.u.
2'F-ANA at 1 4 5 6 7 9 12 14 | 46.3 a.u.
2'F-ANA at 1 2 3 7 11 12 | 420 a.u.
2'F-ANA at 1 5 6 7 9 10 11 12 | 55.6 a.u.
2'F-ANA at 2 4 5 6 8 9 10 12 13 14 15 | 47.1 a.u.
2'F-ANA at 1 5 7 10 11 13 14 | 44.3 a.u.
2'F-ANA at 1 2 4 5 6 7 8 10 13 | 50.6 a.u.
2'F-ANA at 1 2 3 5 6 8 11 13 14 15 | 58.5 a.u.
2'F-ANA at 1 2 5 6 8 10 11 12 13 15 | 51.7 a.u.
2'F-ANA at 1 2 3 4 10 13 15 | 59.5 a.u.
2'F-ANA at 1 2 3 5 6 10 11 12 15 | 52.4 a.u.
2'F-ANA at 2 3 4 5 6 8 9 10 11 12 | 51.3 a.u.
2'F-ANA at 3 6 7 9 12 | 1110 a.u.
2'F-ANA at 1 5 6 9 10 12 15 | 50 a.u.
2'F-ANA at 1 3 4 7 8 11 12 | 372 a.u.
2'F-ANA at 2 4 5 7 8 13 15 | 60.9 a.u.
2'F-ANA at 1 3 4 5 8 9 10 12 13 | 45.9 a.u.

Set 2
Target: Histone acetyltransferase KAT6A, winged helix 2, GST fusion (KAT6A, Homo sapiens, UniProt Q92794, residues 85-181)
Method: protein binding microarray
Form: double-stranded DNA, one strand shown
Matrix: in vitro
Concentration: not given
Setting: 8-mer, flanks averaged, mean of 2 arrays, mostly near background
Relative to: not given
Reading: higher = stronger binding
Residues (chain): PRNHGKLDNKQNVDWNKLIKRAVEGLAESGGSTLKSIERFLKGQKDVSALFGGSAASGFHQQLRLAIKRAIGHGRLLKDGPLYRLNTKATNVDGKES
Oligonucleotide | E-score
AAGTCTAG | -0.167
ACAAGAGA | -0.121
CCAGCTTA | 0.0382
AACGCCAG | 0.222
ATCCAGAT | 0.00709
GCATACAA | 0.0731
TTCTGAAA | 0.0301
GCGTAGCC | 0.114
GGTCGAGA | -0.0609
ATACTCTG | 0.00873
ACGTTCCA | -0.106
TCCGGTAA | -0.0269
AAGGCCGT | 0.00995
CAGAACCC | -0.0558
CAGACTGA | 0.0976
ACCGCGGA | 0.178
AGGGTCAT | -0.16
ATTTATCA | 0.105
CGAGTGAA | 0.16
CAATTCGA | -0.0712
GCTGGAAC | 0.016
CTCGTCGC | -0.0252
CTACCCTC | 0.0196
ACAGCCAT | -0.0626
ATGCCCTG | 0.0991

Set 3
Target: RNA binding protein fox-1 homolog 2, RRM domain, GST-SBP tag (RBFOX2, Homo sapiens, UniProt O43251-10, residues 100-194)
Method: RNA Bind-n-Seq
Form: RNA
Matrix: in vitro
Concentration: 365 nM
Setting: natural RNA segment, single round, ends assumed
Relative to: no-protein control
Reading: higher = stronger binding
Shared flanks, not repeated: GGGAGUUCUACAGUCCGACGAUC … UGGAAUUCUCGGGUGCCAA
Construct (chain): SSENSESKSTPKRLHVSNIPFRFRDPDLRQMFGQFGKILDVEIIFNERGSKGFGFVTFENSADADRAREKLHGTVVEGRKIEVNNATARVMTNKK
Oligonucleotide | RBNS enrichment (R)
UACUGGACAUGUCAGCAUCAACCCUCUCAAAAUAGCUUGGUCACUUUAUGAAGGGGCGUUUUAAAGUUGUUGUUUAGCAGUGACAUUUAAUAUGGUCCAAUUGCUUUUCU | 0.385
GAAUUGCCAGUCCAACUUUUCCUGGCACUGGAAGAAAAAAAAUAAGUGUCCCACCCCUGGAGGGUUAAUCCCUAUCUCUUCCUUUUGACCCCUGACUUGUUCUGGCAAGG | 0.492
UGGUAACUCCAAUAUUUGGUUAAAAAAACUAUACAAAUCAGAAUAGUACUAAAAUACUGUAGAAUUUUAGCAUUUUUAUUUUGCACUUUGUGUGGAUUGAGGUGUUCAGA | 0.821
CAUACUCAUGUUUUACAUCUUUUCUUUCUGCCGCUCGGCUCCGGCCAUUUUGUUUUAUACAAAAAUGGGAAAAAAAAAAAAGAAAUUAUAUAAAGUUCCUAGAGUCGGUG | 0.476
GUUUUAAUCACAUUCACUUUACUUGAAAUUAUGUUGUUACACAACAAAUUGUGGGGCCUUCAAAUUGUUUUUCUCUUUUCAUAUUAAAAAUGGUCUUUCUGUGAACUAGC | 0.745
AUUAAUAGGGCAGAGACUCUGGUCCAUUUCCCAGCUGUACUUCUCUCUAAGAGGUGUAUGAAAAACCCAUCUUGCAAAAGAGACCAAAAUAUUAGACACAAUCGUUCCCA | 0.258
UUUGCAGACCCUACACAGCGGCCCUGGAUAGUGAAUUUUACCCAGGUUUUUAGGGGUCAAGGAGGCCUCUAGUGACACAGGAACAGCUGUGGCCCUUUUUUGAAGCUACU | 0.325
GGUGGGCACUGAAUGUGGUUUUUAGAUUUUUGUAUUGUGGACUGUCUUUGCCUCAUAUUAAAAACUCAUCCCAUGGCCGCUAGGCCACCGUGCUCCAAGGGAGCUCUCAG | 0.472
GCAGGUUAGACUUUGGUCUUCACUGCUUAUAGCUGCAUUGGAGGCCAACGUAGCUGAUGCUCAGGGUCAGGCCUCGCCCCUUCGCCGCAGGUCUCAGGAUCGGGGAUAAC | 0.264
UUUUUGUUGUUGUCUUGGCAGUUUUACUGAACCCUUUGCAUAAAGAACAAAAUAAAAGCUCGGCAUUGUAAUUUUUUUAAUGGACAAGUCUUAUGGAUACGAAGGGUACA | 1.27
AGUAAGGUUUCAAGGGAAUAUUAACUUGGUAUCAGGGCUACUUUUUUUUUUUUUUUUUUACUUGCAUGUCAUCCUUAAUGUCUAACAUGAAAAAUCAGCAAAGAGUAUGG | 2.83
GCAGGCUGUCGUUCCGGUUAUGUUGUGUAAGUCAACUCUUCAGCCUCAUUCACUGUCCUGGCUUUUAUUUAAAGAAAAAAAAGGCAGUAUUCCCUUUUUAAAUGAGCUUU | 0.63

Set 4
Target: Myc proto-oncogene protein, bHLH-zipper, MAX partner unstated (MYC, Homo sapiens, UniProt P01106, residues 368-449)
Chain of UniProt P01106 (368-449, looked up): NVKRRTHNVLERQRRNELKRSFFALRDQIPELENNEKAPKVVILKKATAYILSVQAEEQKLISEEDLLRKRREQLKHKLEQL
Method: protein-binding microarray
Form: double-stranded DNA, one strand shown
Matrix: in vitro
Concentration: not given
Setting: k-mer, scored over probes, only values ≥0.25
Reading: higher = stronger binding
Oligonucleotide | E-score
CTGCGGCC | 0.264
CTCCCCTC | 0.29
CACACGGG | 0.3
CCACGCTC | 0.387
CCCCCTGC | 0.25
CCGGACAC | 0.273
ACACATGC | 0.458
CGTGGAGC | 0.416
ACGGCGTG | 0.432
ATAGCACG | 0.373
CAGTCACG | 0.345
GCACAGCC | 0.289
AGCGCATG | 0.427
GCGTGTGA | 0.363
AGGTGGCG | 0.352
AAGCGTGT | 0.357
CATGTTGA | 0.299
CAGGTGGA | 0.297
GTCATGCA | 0.267
CCCCACCC | 0.314

Set 5
Target: RING finger protein unkempt homolog, zinc fingers 1-6, SBP tag (UNK, Homo sapiens, UniProt Q9C0B0, residues 30-357)
Chain of UniProt Q9C0B0 (30-357, looked up): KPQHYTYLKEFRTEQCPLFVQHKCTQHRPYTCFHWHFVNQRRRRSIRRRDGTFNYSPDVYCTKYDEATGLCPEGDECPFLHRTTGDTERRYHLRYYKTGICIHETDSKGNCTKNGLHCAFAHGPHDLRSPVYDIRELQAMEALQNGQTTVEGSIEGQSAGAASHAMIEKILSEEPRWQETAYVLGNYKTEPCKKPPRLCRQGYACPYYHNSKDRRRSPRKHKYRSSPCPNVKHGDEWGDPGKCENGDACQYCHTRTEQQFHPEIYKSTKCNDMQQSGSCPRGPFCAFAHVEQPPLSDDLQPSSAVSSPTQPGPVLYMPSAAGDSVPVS
Method: RNA Bind-n-Seq
Form: RNA
Matrix: in vitro
Concentration: 100 nM
Setting: RNA with constant flanks, vertebrate orthologous sites, ends assumed
Relative to: input RNA pool
Reading: higher = stronger binding
Shared flanks, not repeated: GGGAGUUCUACAGUCCGACGAUC … CAACAGAGGAUUGAGCAUCA
Oligonucleotide | bound/input enrichment [ratio]
CUGAAGCUUUGUGUUUGGCUGCACCUGCAUAAGCUGCUACAAAUAGAAUAAAGAACUUCAUAGCCUGUAUCUAUCAUUUAGAUGCAUGGGAAAAUGGGCUUUGCACACAGUGGGUUUGGA | 0.834
UUUUUUAAAGUUUUUUUAAUUUAAUUUUUUCCUUUUGGGGGUAAAGUUUGCUCUACCAAAUAGUGAUCGUAACAAAUUGAUCUGUUUUGGAUGUUGCUAUAGUGACAUGCAGUUAUACAU | 0.811
UAUUAGUGUCAUACCAGCAUAUUAACCUCUCGUCUGUGCACAGCUUCAAAUGUUACCGUCUAGUUAGAUUUUUAUUUAAAAUAUGAAAAACUGCUUUUCCCAAGACGUUUUUUAAAACAA | 1.61
AAUGACUUUCUGCUCCAUUAAAAAAAUGAAAAAUAGUCCCCAAAAUAUAAAACUUCUAAAUAGCUAUUUUUGAAAUUAAAUGUUUAGAUUUUGUAAAUCAGCUGUUGCCACUACACAACU | 0.911
AGCAACCCAAGGAUUCAGGACUGGUUUUACAAAUAUACCAAGUAGAUAUGGAACAAACAAUAGAAUUGGGCAACCAAGAUCAUAAUGUACUGUAAUUUAAUUUAUUUUUUGAAGAAUAUU | 0.537
UCCUGUCCUGACUUUUAAAAGGCCCUUAUAUUUCUCUUUUCUUUUUUUUUUUCUUUUACAGGAUAUGUAGUAUAUUAGCAGAAAGAUUUAAUUUGGGCAACUUUGAUUCUUAAAGCAUGU | 0.846
AGAAAAUUUCAACCAAGAAUCUGAAGGUAGAAGUACAGGACCGUGGUUGUCUUCCUCACUUAGGAAUAGAUGCACACCCUUGUUCUCUAGAAGGAGGCGUGAGGGAAGAGAUGAGUCCUC | 0.536
UUCAUUACCUGAGCCGAGUGGAGGUGACGGAGUUUGAAGACAUCAAGUCAGGCUACAGAAUAGAUUUUUGUUUAAUGGUUUCACGUAACACUUUAGUGACUAUUUUUAUUUAUUUAAUUA | 1.09
UUUACAAUCUACUUAAGUAGGUUUUUACAUACCACAUUAAGCCUUCAUUUUACAUAUUUACAGCUUUUCUGUUUUCCAUAUGAAAUCAAAGAAUUUAAUGCUCAAAGUUAAAUGUGGUCU | 0.246
UUCAGGCUCAACUGACUGUUUCACAGCAUUCCUUACACAGCUAUUUAACGAGUACAAGUGGAGUUAAUUUUCAGGAUACAUCCAGGCACUCGGCGUUGUCCUGCAGUCCGGUUGGAGAUG | 0.216
ACCAGUUCAUGGAUUCCGAACUGGAUUCAGCAAUGUUCCAGGAAGGUAUGGAACGAACACUCAGGGACAGUUUGGUCAGUUCAGACCAUAGUGUACUAUAUUUAGAGCCAAUGGCAUAAC | 0.342
